{"data": "Results from different studies", "note": "Every numbered part comes from another study and shows a few of its results, in no order. Positions count from the first letter of the parent shown."}
{"data": "Sample 1", "target": "Interferon regulatory factor 5, full length, phosphomimetic (IRF5, Homo sapiens, UniProt Q13568-2, residues 1-514, K96S/S451D/S453D/S456D/S462D)", "method": "protein-binding microarray", "form": "double-stranded DNA, one strand shown", "matrix": "in vitro", "tested at": "250 nM", "setting": "60-bp whole probe", "with": "salmon DNA 0.4 mg/ml", "baseline": "random background probes", "direction": "higher = stronger binding", "constant ends, left off below": "GCCTAGCAC … GTCTTGATTCGCTTGACGCTGCTG"}
{"Oligonucleotide": "TTAGGTTTCGGTTTTGGTTAGTGCTAG", "log fluorescence": "10.7 z-score"}
{"Oligonucleotide": "CAACCTTTGTTTTTTTCTATGTGCTAG", "log fluorescence": "1.13 z-score"}
{"Oligonucleotide": "GACGATTTCGGGTATCAAGACGTGCTA", "log fluorescence": "4.31 z-score"}
{"Oligonucleotide": "GACGGACTGGGTCTCTGGACGTGCTAG", "log fluorescence": "-0.631 z-score"}
{"Oligonucleotide": "GACGGTTACCTTCTCCTGACGTGCTAG", "log fluorescence": "0.314 z-score"}
{"Oligonucleotide": "TTAGGTTTCGACTTTCGGTGAGTGCTA", "log fluorescence": "9.79 z-score"}
{"Oligonucleotide": "TTAGATATAAGTATCGATTAGTGCTAG", "log fluorescence": "6.28 z-score"}
{"Oligonucleotide": "GACGGACTGGGTTCCGGGACGTGCTAG", "log fluorescence": "-0.524 z-score"}
{"data": "Sample 2", "target": "ABI1, truncated, D143A, DHFR fusion (Arabidopsis thaliana)", "method": "DHFR PCA, deep sequencing", "matrix": "yeast", "setting": "methotrexate growth selection, single substitutions", "with": "(+)-ABA 2500 µM", "baseline": "wild-type fitted maximum", "direction": "higher = stronger binding", "parent": "PYL1, truncated, DHFR fusion (Arabidopsis thaliana); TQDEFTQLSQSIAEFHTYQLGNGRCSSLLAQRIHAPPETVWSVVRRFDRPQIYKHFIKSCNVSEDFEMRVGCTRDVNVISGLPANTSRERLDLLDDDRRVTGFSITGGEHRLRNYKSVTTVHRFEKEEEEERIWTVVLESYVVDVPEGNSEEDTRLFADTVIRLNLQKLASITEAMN; partner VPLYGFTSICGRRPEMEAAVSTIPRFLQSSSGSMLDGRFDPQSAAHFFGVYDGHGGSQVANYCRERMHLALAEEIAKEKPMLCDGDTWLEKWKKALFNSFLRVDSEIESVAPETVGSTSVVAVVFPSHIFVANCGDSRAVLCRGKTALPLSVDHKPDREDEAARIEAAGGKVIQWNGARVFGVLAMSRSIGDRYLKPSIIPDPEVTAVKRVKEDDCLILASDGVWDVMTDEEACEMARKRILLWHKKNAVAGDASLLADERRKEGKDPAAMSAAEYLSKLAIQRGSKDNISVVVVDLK"}
{"Change": "D95V", "relative binding score": "78%"}
{"Change": "L91R", "relative binding score": "38.2%"}
{"Change": "A84T", "relative binding score": "56.1%"}
{"Change": "H34V", "relative binding score": "96.6%"}
{"Change": "N165P", "relative binding score": "-3.99%"}
{"Change": "D75R", "relative binding score": "95.8%"}
{"Change": "G81I", "relative binding score": "33.8%"}
{"Change": "E139I", "relative binding score": "92.2%"}
{"data": "Sample 3", "target": "PABPC1L2, full length, GST fusion (mouse, UniProt A0ABA7IW68)", "method": "RNAcompete", "form": "RNA", "matrix": "in vitro", "tested at": "20 nM", "setting": "7-mer, probes averaged, single round", "baseline": "mean of 7-mers", "direction": "higher = stronger binding", "Residues (chain)": "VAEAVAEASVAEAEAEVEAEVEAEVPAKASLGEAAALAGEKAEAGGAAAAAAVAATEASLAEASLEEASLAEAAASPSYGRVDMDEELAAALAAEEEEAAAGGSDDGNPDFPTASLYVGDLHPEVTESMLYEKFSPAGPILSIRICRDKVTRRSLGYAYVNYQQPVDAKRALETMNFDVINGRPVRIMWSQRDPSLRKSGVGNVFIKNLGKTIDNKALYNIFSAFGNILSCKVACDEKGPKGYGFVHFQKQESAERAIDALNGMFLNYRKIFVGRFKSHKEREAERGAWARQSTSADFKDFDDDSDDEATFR"}
{"Oligonucleotide": "AGUAAUC", "7-mer Z-score": -0.133}
{"Oligonucleotide": "GCCUCAU", "7-mer Z-score": -0.262}
{"Oligonucleotide": "CAAACAU", "7-mer Z-score": 1.41}
{"Oligonucleotide": "UUUGCAA", "7-mer Z-score": -0.0681}
{"Oligonucleotide": "UGAAUGA", "7-mer Z-score": -0.0409}
{"Oligonucleotide": "AUUUCUC", "7-mer Z-score": -0.44}
{"Oligonucleotide": "CUUCAUG", "7-mer Z-score": -0.331}
{"Oligonucleotide": "ACCUAGA", "7-mer Z-score": 0.0406}
{"data": "Other studies, line by line", "parent": "viral docking peptide; KKAKRRLFTISDS"}
{"Change": "F8L", "target": "CCNE2, cyclin fold, Cln2 fusion (human)", "test": "yeast growth competition, sequencing", "test system": "yeast", "conditions": "strong parent motif", "scale": "baseline: not given, higher = stronger binding", "quantity": "normalised enrichment score", "result": 0.975}
{"note": "Excerpt of the above (sample 1):"}
{"Oligonucleotide": "GACGATTTCGGGTATCAAGACGTGCTA", "log fluorescence": "4.31 z-score"}
{"Oligonucleotide": "GACGGACTGGGTCTCTGGACGTGCTAG", "log fluorescence": "-0.631 z-score"}
